Results from different studies.
Lines come from different studies, so protocols differ.
Organism: Escherichia coli

SMILES	method	strain	matrix	time	temperature	notes	MIC
CSCC[C@H](NC=O)C(=O)N[C@@H](CCCNC(=N)N)C(=O)N[C@H](C(=O)NCC(=O)N[C@@H](CC(N)=O)C(=O)N[C@@H](C)C(=O)N[C@@H](CC(N)=O)C(=O)NCC(=O)N1CCN(c2cc3c(cc2F)c(=O)c(C(=O)O)cn3C2CC2)CC1)[C@@H](C)O	multistep resistance selection	K-12 MG1655	–	day 4	–	–	3.12 µM
CC[C@H](C)[C@H](NC(=O)[C@@H](CCCNC(=N)N)NC(=O)[C@H](CCCNC(=N)N)NC(=O)[C@H](Cc1c[nH]c2ccccc12)NC(=O)[C@H](Cc1c[nH]c2ccccc12)NC(=O)[C@H](CCCNC(=N)N)NC(=O)[C@@H]1CCCN1C(=O)[C@H](CCCNC(=N)N)NC(=O)[C@@H]1CCCN1C(=O)[C@H](CC(C)C)NC(=O)[C@H](Cc1ccc(O)cc1)NC(=O)[C@@H]1CCCN1C(=O)[C@@H]1CCCN1C(=O)[C@H](CCCCN)NC(=O)[C@H](CC(=O)O)NC(=O)[C@@H](N)C(C)C)C(=O)N[C@@H](Cc1ccc(O)cc1)C(=O)N[C@@H](CC(N)=O)C(=O)N[C@H](CCCNC(=N)N)C(N)=O	broth microdilution	BW25113	–	18 h	37 °C	25% MHB2	16 µg/mL
CC[C@H](C)[C@H](NC(=O)[C@H](Cc1c[nH]c2ccccc12)NC(=O)[C@H](CCCCN)NC(=O)[C@H](CC(C)C)NC(=O)[C@@H](NC(=O)[C@@H](NC(=O)CNC(=O)[C@H](CCCCN)NC(=O)[C@H](Cc1c[nH]cn1)NC(=O)[C@H](CCCCN)NC(=O)[C@H](Cc1c[nH]c2ccccc12)NC(=O)[C@H](C)NC(=O)[C@H](CC(C)C)NC(=O)[C@H](CO)NC(=O)[C@@H](NC(=O)[C@H](Cc1ccc(O)cc1)NC(=O)[C@H](CCCCN)NC(=O)[C@H](CCC(N)=O)NC(=O)CNC(=O)[C@H](CCCCN)NC(=O)[C@@H](NC(=O)[C@H](C)NC(=O)[C@H](CC(C)C)NC(=O)[C@H](Cc1ccccc1)NC(=O)[C@H](CCC(N)=O)NC(=O)[C@@H](NC(=O)[C@H](CC(C)C)NC(=O)[C@H](CCCCN)NC(=O)[C@H](CCSC)NC(=O)[C@H](Cc1ccccc1)NC(=O)[C@H](C)NC(=O)[C@H](C)NC(=O)[C@@H](N)CCSC)[C@@H](C)CC)[C@@H](C)O)C(C)C)[C@@H](C)O)[C@@H](C)CC)C(=O)N[C@@H](CC(N)=O)C(N)=O	broth microdilution	ML35, smooth, full-length O-chains	Mueller Hinton broth	24 h	37 °C	–	64 µg/mL
CC[C@H](C)[C@H](NC(=O)[C@@H](NC(=O)[C@H](CCCCN)NC(=O)[C@H](CCCCN)NC(=O)[C@@H](NC(=O)[C@H](Cc1c[nH]c2ccccc12)NC(=O)[C@H](CCCCN)NC(=O)[C@H](Cc1c[nH]c2ccccc12)NC(=O)[C@H](CC(C)C)NC(=O)[C@H](CCCCN)NC(=O)[C@H](CCCCN)NC(=O)[C@@H](N)C(C)C)[C@@H](C)CC)C(C)C)C(N)=O	–	–	–	24 h	37 °C	Mueller-Hinton broth, human serum 10%	64 µM
Cc1ccnc(-c2cc(C(=O)NCCCCCC(=O)N[C@@H](CCCNC(=N)N)C(=O)N[C@@H](Cc3c[nH]c4ccccc34)C(=O)N[C@@H](CCCNC(=N)N)C(=O)N[C@@H](Cc3c[nH]c4ccccc34)C(=O)N[C@@H](CCCNC(=N)N)C(=O)N[C@@H](Cc3c[nH]c4ccccc34)C(N)=O)ccn2)c1	–	ATCC BAA-196, resistant	–	18 h	37 °C	dark	16 µM
CC(C)C[C@H](NC(=O)[C@H](CCCNC(=N)N)NC(=O)[C@H](C)NC(=O)[C@H](CC(C)C)NC(=O)[C@H](CCCNC(=N)N)NC(=O)[C@H](C)NC(=O)[C@H](CCCCN)NC(=O)[C@H](CC(C)C)NC(=O)[C@H](CCCNC(=N)N)NC(=O)[C@H](Cc1ccc(O)cc1)NC(=O)[C@H](CC(C)C)NC(=O)[C@H](CCCNC(=N)N)NC(=O)[C@H](C)NC(=O)[C@H](CCCNC(=N)N)NC(=O)[C@H](CC(C)C)NC(=O)[C@H](CCCCN)NC(=O)[C@H](C)NC(=O)[C@H](CC(C)C)NC(=O)[C@H](CCCNC(=N)N)NC(=O)[C@H](C)NC(=O)[C@@H](N)CCCCN)C(N)=O	–	K12	–	24 h	–	–	10.2 µM
CC(C)C[C@H](NC(=O)[C@@H](NC(=O)[C@H](CCCCN)NC(=O)[C@H](CCCCN)NC(=O)[C@H](CC(C)C)NC(=O)[C@H](Cc1c[nH]c2ccccc12)NC(=O)[C@H](CCCCN)NC(=O)[C@H](Cc1c[nH]c2ccccc12)NC(=O)[C@H](CC(C)C)NC(=O)[C@H](CCCCN)NC(=O)[C@H](CCCCN)NC(=O)[C@@H](N)C(C)C)C(C)C)C(N)=O	–	–	–	24 h	37 °C	Mueller-Hinton broth, CaCl2 2.5 mM	64 µM
CC1(C)[C@H](NC(=O)/C(=N\OCc2c(Cl)cccc2Cl)c2csc(N)n2)C(=O)N1OS(=O)(=O)O	agar dilution	08-85, mcr-1	–	–	–	–	8 µg/mL
CC[C@H](C)[C@H](NC(=O)[C@H](CCCCN)NC(=O)[C@H](CCCCN)NC(=O)[C@H](CC(C)C)NC(=O)[C@H](CCCCN)NC(=O)[C@H](CCCCN)NC(=O)[C@H](Cc1ccccc1)NC(=O)[C@H](Cc1ccccc1)NC(=O)[C@H](CCCNC(=N)N)NC(=O)[C@H](CCCNC(=N)N)NC(=O)[C@@H](NC(=O)[C@H](CCCCN)NC(=O)[C@H](CCCNC(=N)N)NC(=O)[C@@H](NC(=O)[C@H](Cc1ccc(O)cc1)NC(=O)[C@H](CO)NC(=O)[C@H](CCCNC(=N)N)NC(=O)[C@@H](N)CC(C)C)[C@@H](C)CC)[C@@H](C)CC)C(=O)N[C@@H](CC(C)C)C(=O)N[C@@H](CCCCN)C(=O)N[C@@H](CCCCN)C(N)=O	–	BL21(DE3)	Mueller-Hinton broth	20 h	–	–	1.37 µM
CCCCCCCC(=O)N[C@@H](CCN)C(=O)N[C@H](C(=O)N[C@@H](CCN)C(=O)N[C@H]1CCNC(=O)[C@H]([C@@H](C)O)NC(=O)[C@H](CCN)NC(=O)[C@H](CCN)NC(=O)[C@H](CC(C)C)NC(=O)[C@@H](Cc2ccc(Cl)cc2)NC(=O)[C@H](CCN)NC1=O)[C@@H](C)O	broth microdilution	ATCC 25922, colistin-susceptible	–	–	–	–	< 0.125 µg/mL
CC[C@H](C)[C@H](NC(=O)[C@@H](CCCNC(=N)N)NC(=O)[C@H](CCCNC(=N)N)NC(=O)[C@@H]1CCCN1C(=O)[C@@H]1CCCN1C(=O)[C@H](CCCNC(=N)N)NC(=O)[C@@H]1CCCN1C(=O)[C@H](CCCNC(=N)N)NC(=O)[C@@H]1CCCN1C(=O)[C@H](CC(C)C)NC(=O)[C@H](Cc1ccc(O)cc1)NC(=O)[C@@H]1CCCN1C(=O)[C@H](Cc1ccc(O)cc1)NC(=O)[C@H](CCCCN)NC(=O)[C@H](CC(=O)O)NC(=O)[C@@H](N)C(C)C)C(=O)N[C@@H](Cc1ccc(O)cc1)C(=O)N[C@@H](CC(N)=O)C(=O)N[C@H](CCCNC(=N)N)C(N)=O	broth microdilution	MC4100	–	18 h	37 °C	25% MHB2	16 µg/mL
CC(C)[C@H](NC(=O)[C@H](CCCNC(=N)N)NC(=O)[C@H](Cc1ccccc1)NC(=O)[C@H](CS)NC(=O)[C@H](Cc1c[nH]c2ccccc12)NC(=O)[C@@H](N)CCCCN)C(=O)N[C@@H](CS)C(=O)N[C@@H](Cc1c[nH]c2ccccc12)C(=O)N[C@@H](CCCNC(=N)N)C(=O)N[C@@H](Cc1c[nH]c2ccccc12)C(=O)N[C@@H](Cc1ccccc1)C(=O)N[C@@H](CS)C(=O)N[C@@H](Cc1c[nH]c2ccccc12)C(=O)N[C@@H](CCCNC(=N)N)C(=O)N[C@@H](CCCCN)C(=O)N[C@@H](CS)C(=O)N[C@@H](CCCNC(=N)N)C(=O)O	broth microdilution	K88	Mueller-Hinton broth	–	37 °C	–	35.2 µg/mL
CC1(C)[C@H](NC(=O)/C(=N\OCCN)c2csc(N)n2)C(=O)N1OS(=O)(=O)O	agar dilution	CDC 1001728, NDM-1	–	–	–	–	16 µg/mL
CC[C@H](C)[C@H](NC(=O)[C@@H](CCCNC(=N)N)NC(=O)[C@H](CCCNC(=N)N)NC(=O)[C@@H]1CCCN1C(=O)[C@H](Cc1c[nH]c2ccccc12)NC(=O)[C@H](CCCNC(=N)N)NC(=O)[C@@H]1CCCN1C(=O)[C@H](CCCNC(=N)N)NC(=O)[C@@H]1CCCN1C(=O)[C@H](CC(C)C)NC(=O)[C@H](Cc1ccc(O)cc1)NC(=O)[C@@H]1CCCN1C(=O)[C@@H]1CCCN1C(=O)[C@H](CCCCN)NC(=O)[C@H](CC(=O)O)NC(=O)[C@@H](N)C(C)C)C(=O)N[C@@H](Cc1ccc(O)cc1)C(=O)N[C@@H](CC(N)=O)C(=O)N[C@H](CCCNC(=N)N)C(N)=O	broth microdilution	ATCC 25922	–	18 h	37 °C	25% MHB2	8 µg/mL
N=C(N)NCCC[C@@H]1NC(=O)[C@H](CCCNC(=N)N)NC(=O)[C@@H](C(c2ccccc2)c2ccccc2)NC(=O)[C@H](Cc2c[nH]c3ccccc23)NC(=O)[C@@H](C(c2ccccc2)c2ccccc2)NC(=O)[C@@H](CCCNC(=N)N)NC(=O)[C@@H](CCCNC(=N)N)NC1=O	–	ATCC BAA-2452, NDM-1 CRE	–	–	–	–	16 µg/mL
CC[C@H](C)[C@H](NC(=O)[C@@H](CCCNC(=N)N)NC(=O)[C@H](CCCNC(=N)N)NC(=O)[C@@H]1CCCN1C(=O)[C@@H]1CCCN1C(=O)[C@H](CCCNC(=N)N)NC(=O)[C@@H]1CCCN1C(=O)[C@H](CCCNC(=N)N)NC(=O)[C@@H]1CCCN1C(=O)[C@H](CCSC)NC(=O)[C@H](Cc1ccc(O)cc1)NC(=O)[C@@H]1CCCN1C(=O)[C@@H]1CCCN1C(=O)[C@H](CCCCN)NC(=O)[C@H](CC(=O)O)NC(=O)[C@@H](N)C(C)C)C(=O)N[C@@H](Cc1ccc(O)cc1)C(=O)N[C@@H](CC(N)=O)C(=O)N[C@H](CCCNC(=N)N)C(N)=O	broth microdilution	MC4100	–	18 h	37 °C	25% MHB2	8 µg/mL
CC[C@H](C)[C@H](N)C(=O)N[C@@H](C)C(=O)N[C@@H](CC(C)C)C(=O)N[C@H](CCC(=O)O)C(=O)N[C@H](C(=O)N[C@H]1CCCCNC(=O)[C@H](CC(N)=O)NC(=O)[C@@H](CC(=O)O)NC(=O)[C@H](Cc2c[nH]cn2)NC(=O)[C@@H](Cc2ccccc2)NC(=O)[C@H]([C@@H](C)CC)NC(=O)[C@@H](CCCN)NC1=O)[C@@H](C)CC	–	ATCC 25922	–	18 h	37 °C	0.3 mM ZnSO4 LB	> 64 µg/mL
CC(=O)N[C@H](Cc1ccc(F)cc1)C(=O)N[C@@H](CCN)C(=O)N[C@H](C(=O)N[C@@H](CCN)C(=O)N[C@H]1CCNC(=O)[C@H]([C@@H](C)O)NC(=O)[C@H](CCN)NC(=O)[C@H](CCN)NC(=O)[C@H](CC(C)C)NC(=O)[C@@H](Cc2ccccc2)NC(=O)[C@H](CCN)NC1=O)[C@@H](C)O	broth microdilution	ATCC 25922, colistin-susceptible	–	–	–	–	0.25 to 0.5 µg/mL
CC[C@H](C)[C@H](NC(=O)[C@@H](CCCNC(=N)N)NC(=O)[C@H](CCCNC(=N)N)NC(=O)[C@H](CCC(N)=O)NC(=O)[C@H](Cc1c[nH]c2ccccc12)NC(=O)[C@H](CCCNC(=N)N)NC(=O)[C@@H]1CCCN1C(=O)[C@H](CCCNC(=N)N)NC(=O)[C@@H]1CCCN1C(=O)[C@H](CC(C)C)NC(=O)[C@H](Cc1ccc(O)cc1)NC(=O)[C@@H]1CCCN1C(=O)[C@@H]1CCCN1C(=O)[C@H](CCCCN)NC(=O)[C@H](CC(=O)O)NC(=O)[C@@H](N)C(C)C)C(=O)N[C@@H](Cc1ccc(O)cc1)C(=O)N[C@@H](CC(N)=O)C(=O)N[C@H](CCCNC(=N)N)C(N)=O	broth microdilution	ATCC 25922	–	18 h	37 °C	25% MHB2	8 µg/mL

Repeated from above:
SMILES	method	strain	matrix	time	temperature	notes	MIC
CC(C)C[C@H](NC(=O)[C@H](CCCNC(=N)N)NC(=O)[C@H](C)NC(=O)[C@H](CC(C)C)NC(=O)[C@H](CCCNC(=N)N)NC(=O)[C@H](C)NC(=O)[C@H](CCCCN)NC(=O)[C@H](CC(C)C)NC(=O)[C@H](CCCNC(=N)N)NC(=O)[C@H](Cc1ccc(O)cc1)NC(=O)[C@H](CC(C)C)NC(=O)[C@H](CCCNC(=N)N)NC(=O)[C@H](C)NC(=O)[C@H](CCCNC(=N)N)NC(=O)[C@H](CC(C)C)NC(=O)[C@H](CCCCN)NC(=O)[C@H](C)NC(=O)[C@H](CC(C)C)NC(=O)[C@H](CCCNC(=N)N)NC(=O)[C@H](C)NC(=O)[C@@H](N)CCCCN)C(N)=O	–	K12	–	24 h	–	–	10.2 µM
CC[C@H](C)[C@H](NC(=O)[C@@H](NC(=O)[C@H](CCCCN)NC(=O)[C@H](CCCCN)NC(=O)[C@@H](NC(=O)[C@H](Cc1c[nH]c2ccccc12)NC(=O)[C@H](CCCCN)NC(=O)[C@H](Cc1c[nH]c2ccccc12)NC(=O)[C@H](CC(C)C)NC(=O)[C@H](CCCCN)NC(=O)[C@H](CCCCN)NC(=O)[C@@H](N)C(C)C)[C@@H](C)CC)C(C)C)C(N)=O	–	–	–	24 h	37 °C	Mueller-Hinton broth, human serum 10%	64 µM
CC(C)[C@H](NC(=O)[C@H](CCCNC(=N)N)NC(=O)[C@H](Cc1ccccc1)NC(=O)[C@H](CS)NC(=O)[C@H](Cc1c[nH]c2ccccc12)NC(=O)[C@@H](N)CCCCN)C(=O)N[C@@H](CS)C(=O)N[C@@H](Cc1c[nH]c2ccccc12)C(=O)N[C@@H](CCCNC(=N)N)C(=O)N[C@@H](Cc1c[nH]c2ccccc12)C(=O)N[C@@H](Cc1ccccc1)C(=O)N[C@@H](CS)C(=O)N[C@@H](Cc1c[nH]c2ccccc12)C(=O)N[C@@H](CCCNC(=N)N)C(=O)N[C@@H](CCCCN)C(=O)N[C@@H](CS)C(=O)N[C@@H](CCCNC(=N)N)C(=O)O	broth microdilution	K88	Mueller-Hinton broth	–	37 °C	–	35.2 µg/mL
